Results collected from several papers.
A part holds a random share of what one study measured. Positions count from the first letter of the parent shown.

Sample 1 — technique: RNA Bind-n-Seq; molecule type: RNA; medium: in vitro; concentration: 365 nM; reference: no-protein control; reading: higher = stronger binding
Target: RNA binding protein fox-1 homolog 2, RRM domain, GST-SBP tag (RBFOX2, Homo sapiens, UniProt O43251-10, residues 100-194)
Notes: natural RNA segment, single round, ends assumed
All sequences stand within: GGGAGUUCUACAGUCCGACGAUC … UGGAAUUCUCGGGUGCCAA
Residues (chain): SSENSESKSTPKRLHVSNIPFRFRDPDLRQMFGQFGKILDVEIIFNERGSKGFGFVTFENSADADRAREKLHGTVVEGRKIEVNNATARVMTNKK
| Strand | RBNS enrichment (R) |
| --- | --- |
| AGAAUGAGGGAAAUUGCUAUUUUAUUUGUAUUCAUGAACUUGGCUGUAAUCAGUUAUGCCGUAUAGGAUGUCAGACAAUACCACUGGUUAAAAUAAAGCCUAUUUUUCAA | 1.85 |
| AUCUCACACUCAUGCAUUGUCCUCUUUUUAUUUAGAUUGGCAGUGUAGGGAGUUGUGGGUAGUGGGGAAGAGGGUUAGGAGGGUUUCAUUGUCUGUGAAGUGAGACCUUC | 0.8 |
| CCACCUGGAGGAUUUGCUGCCCUCUGUCCCUCAUUUCAGAUUAUUGCUGCUCCAACCCAUAGCACGCUUCCUACUGCACACACAUGUUUUAACCAACUGUGCCUCCCUAC | 1.68 |
| AUAAGUUGUCCUUAGUCUCUUGUGCUGAUUCACUGUAUAAGCAUGAUCCUGGUAAUGCACUUUGGAUGGGAAGAAAAUGUACGUGCUUUUCAGAGGGGCUCUGAACAGAA | 17.4 |
| UGUCGCCAUUUGCAUUUUGAGUCAUCUUGUGUAAAUGUCACCAUGAAAGUGUUACUCAGAAUUGUCAUAGUUUUUUUCCCCCCAUCUUUGUGCUAAAACAUGGAAAAUUG | 0.339 |
| UGCUGCCGAAGAACCCCAUGGUCCUCCCACAAUACCAAAGCUUCCCUGUUUCCCCUUCUGCCUCCGUUUCCCCAGCAGGACCACACUGCCUGUGGGACAAAGGACAGGAU | 0.508 |
| CUUUGAGUCCUCCAAGAAAGAUGAUACUUGGUUCAUUUCAAAAAACCAAAUGCAGACAAAUGGGAGAACCAGUUCCCCAGCUUAUGUUAGCAUAGUCAACAGCGAGCAUA | 0.314 |
| UGGGAACCACAGAGGAAGGAUGAGGUGGGAUGUGGAGGUCAGAGCAUCUCACGAGAGUCCCUCAGGCUCUGCAACACUAGAUUCGAAUAUGAGCCUAGGGUUUCCCCAAC | 0.488 |

Sample 2 — target: CCND2, cyclin fold, Cln2 fusion (human); technique: yeast growth competition, sequencing; medium: yeast; notes: weak parent motif; reference: not given; reading: higher = stronger binding
Parent: E2F1 docking peptide (human); PPVKRRLDLETDH
| Variant | normalised enrichment score |
| --- | --- |
| PPVKRNLDLETDH [R6N] | 0.404 |
| PPVKRRLDLETQH [D12Q] | 0.303 |
| PPVKRRDDLETDH [L7D] | 0.196 |
| PPVKRRLDLENDH [T11N] | -0.087 |
| PPVKQRLDLETDH [R5Q] | 0.35 |
| NPVKRRLDLETDH [P1N] | 0.347 |
| PPHKRRLDLETDH [V3H] | 0.0536 |
| PKVKRRLDLETDH [P2K] | 0.179 |
| PPVKRRLDLTTDH [E10T] | 0.221 |
| PPVKRRLDLDTDH [E10D] | 0.649 |
| PPVKRRLTLETDH [D8T] | 0.362 |
| PPVKRRLDLETNH [D12N] | -0.345 |
| PPVKPRLDLETDH [R5P] | -0.465 |
| PPVQRRLDLETDH [K4Q] | 0.439 |
| PPSKRRLDLETDH [V3S] | 0.135 |
| PPVCRRLDLETDH [K4C] | 0.358 |
| PPVKRRLDLFTDH [E10F] | 0.151 |
| PPVKRRLDLETDG [H13G] | 0.266 |
| PPVKRRLDLEHDH [T11H] | 0.0183 |
| PPVPRRLDLETDH [K4P] | -0.0902 |
| PPVKRRLALETDH [D8A] | -0.01 |
| PPVKSRLDLETDH [R5S] | 0.16 |
| PPVKKRLDLETDH [R5K] | 0.309 |
| PPVKRRLDLETDF [H13F] | 0.546 |
| PPDKRRLDLETDH [V3D] | -0.169 |

Sample 3 — technique: protein-binding microarray; molecule type: double-stranded DNA, one strand shown; medium: in vitro; concentration: 2540 nM top; notes: 60-bp whole probe; added: salmon DNA 0.4 mg/ml; reference: random background probes; reading: higher = stronger binding; all sequences stand within: GCCTAGCAC … GTCTTGATTCGCTTGACGCTGCTG
Target: Interferon regulatory factor 3, full length, phosphomimetic (IRF3, Homo sapiens, UniProt Q14653, residues 1-427, S386D/S396D/S398D/S402D/T404D/S405D)
Residues (chain): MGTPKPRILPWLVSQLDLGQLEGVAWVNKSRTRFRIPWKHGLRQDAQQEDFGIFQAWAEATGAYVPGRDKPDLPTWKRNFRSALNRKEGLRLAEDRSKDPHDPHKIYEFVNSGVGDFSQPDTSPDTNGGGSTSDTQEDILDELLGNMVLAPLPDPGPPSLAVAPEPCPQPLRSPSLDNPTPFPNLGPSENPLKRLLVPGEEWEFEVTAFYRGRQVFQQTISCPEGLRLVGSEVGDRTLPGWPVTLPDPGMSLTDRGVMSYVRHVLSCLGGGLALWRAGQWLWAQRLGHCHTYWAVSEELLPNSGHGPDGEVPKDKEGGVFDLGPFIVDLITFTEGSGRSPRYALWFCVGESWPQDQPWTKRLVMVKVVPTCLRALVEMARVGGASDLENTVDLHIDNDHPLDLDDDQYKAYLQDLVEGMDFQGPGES
| Strand | fitted relative affinity [z-score] |
| --- | --- |
| GACGGACTGCTACTGCTGAAGTGCTAG | -0.593 |
| GATGGACTGGGGTATCGGGACGTGCTA | -0.678 |
| TTAGTACTGGACTTTCGGTTAGTGCTA | 1.29 |
| TTAGAACTGAGTCTCGGTTAGTGCTAG | -0.319 |
| GTGTTTCTCAACCATTTTGTTGTGCTA | 1.88 |
| TCATTAATAAGGTTTCCAACTGTGCTA | 2.53 |
| GCAACATTCACCATGGCTAGGTGCTAG | 0.586 |
| GACGATTTCGGGACGGGAGACGTGCTA | 1.52 |
| GACGGTTTCGGGTATCTGGACGTGCTA | 4.39 |
| GACGGACTGCTCCTCCTGACGTGCTAG | -0.353 |
| CCTAATTCTCTTTTCACTTTGTGCTAG | 2.3 |
| CACGGTCTCGGTATCGGGACGTGCTAG | 1.58 |
| TTAGGACTGGGGACTGGCTTAGTGCTA | -1.3 |
| GACGGACTGGGTTTCTGGACGTGCTAG | -0.116 |
| TGGCTTTGCCTTTTGCTTTAGTGCTAG | -0.0946 |
| TTAGGCCTGGGGTATCGGTTAGTGCTA | -0.47 |
| TACTCTACAGGGTTTCACTTTGTGCTA | 1.82 |
| TTAGGTCTCCTTCTCCTGTAGTGCTAG | 4.28 |
| TTAGGTATCCTTCTCCTGTAGTGCTAG | 7.3 |

Sample 4 — technique: RNA Bind-n-Seq; molecule type: RNA; medium: in vitro; concentration: 200 nM; notes: whole 134-nt RNA, ends assumed; added: 150 mM KCl; reference: input library; reading: higher = stronger binding
Target: Fragile X messenger ribonucleoprotein 1, C-terminal low-complexity region (Fmr1, Mus musculus, UniProt P35922)
All sequences stand within: GGGAGUUCUACAGUCCGACGAUC … UGGAAUUCUCGGGUGUCAAGG
| Strand | log2 enrichment |
| --- | --- |
| UGGCCCUGGUGGCAUGCGGGGAGGAAGAGGUGGCCUCAUGGAUCGUGGUGGUCCCGGUGGAAUGUUCAGAGGUGGCCGUGGUGGAGAUAG | 0.202 |
| UCAAGUCCUGUGCUACACAUCGUAUGUACCGAAUCGGCCGGGGCCGGGGCCGGGGAAAGUAUUAUGUUACGCCGUUCGGAUCUGCACUUC | -0.568 |
| AGUCCUGUGCUACACAUCGUAUGUACCGAAUCGGGUUUGGGUUUUUGGGUUUUUGGGAAAGUAUUAUGUUACGCCGUUCGGAUCUGCACU | 0.641 |
| CAAGUCCUGUGCUACACAUCGUAUGUACCGAAUCGGGGAAGGGGAAGGGGAAGGGGAAAGUAUUAUGUUACGCCGUUCGGAUCUGCACUU | 0.924 |
| GCAGGAAGUAAAACCAAAUGGAAAUGCUUCGGAUAGUGGCAGGGGUGGGGGUUGCUAAGGAAAGGGUGGGAUGGGAGUGGGUAAAGAGUU | 0.945 |
| UUCCCCACUUCCUUCCCUCCAGUCCCCACUCACUCACAUGCACACACUAACCUUGGAGCCGAUGGGAUUGAGUGACUGGCACUUGGGACC | 0.769 |
| GAGUCCGGUUCGUGUUCGUCCGCGGAGAUCUCUCUCAUCUCGCUCGGCUGCGGGAAAUCGGGCUGAAGCGACUGAGUCCGCGAUGGAGGU | -1.29 |
| UCAAGUCCUGUGCUACACAUCGUAUGUACCGAAUCGGGGAAGGGGAAGGAAGGGAAAGUAUUAUGUUACGCCGUUCGGAUCUGCACUUCC | 0.168 |
| UGGCCCUGGUGGCAUGCGGGGAGGAAGAGGUGGCCUCAUGGAUCGUGGUGGUCCCGGUGGAAUGUUCAGAGGUGGCCGUGGUGGAGUCAG | 0.0353 |
